Experimental data collected from several papers.
Numbered parts are unrelated; each lists some results of a single study.

Series 1 — method: protein binding microarray; form: double-stranded DNA, one strand shown; medium: in vitro; concentration: not given; reference: not given; direction: higher = stronger binding
Target: Histone acetyltransferase KAT6A, winged helix 2, GST fusion (KAT6A, Homo sapiens, UniProt Q92794, residues 85-181)
Setting: 8-mer, flanks averaged, mean of 2 arrays, mostly near background
Target sequence (chain): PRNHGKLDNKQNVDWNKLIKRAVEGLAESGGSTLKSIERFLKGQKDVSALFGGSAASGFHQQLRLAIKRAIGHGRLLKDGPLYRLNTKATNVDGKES
| Sequence | E-score |
| --- | --- |
| ATGGGAAA | -0.111 |
| GTGGCTGA | 0.025 |
| CTTTTCGC | 0.144 |
| CTAATGGA | -0.0952 |
| ATATCAAT | 0.141 |
| GGGGCTTA | -0.0572 |
| GTGAGTAA | 0.064 |
| AGCTTACT | -0.0241 |
| GTAACAGA | -0.0235 |
| GAAAACTC | 0.2 |
| ATATGAGG | -0.209 |
| ACGCATCG | -0.0204 |
| TAGCGCGA | -0.0244 |
| CCGTAGAC | -0.189 |
| GAATTAAA | -0.0553 |
| CGACCCCC | -0.177 |
| CCTATAGC | -0.185 |
| AACAGCTT | -0.0156 |
| GGGTGTGA | -0.0148 |

Series 2 — method: RNA Bind-n-Seq; form: RNA; medium: in vitro; concentration: 365 nM; reference: no-protein control; direction: higher = stronger binding
Target: RNA binding protein fox-1 homolog 2, RRM domain, GST-SBP tag (RBFOX2, Homo sapiens, UniProt O43251-10, residues 100-194)
Setting: natural RNA segment, single round, ends assumed
Shared flanks, not repeated: GGGAGUUCUACAGUCCGACGAUC … UGGAAUUCUCGGGUGCCAA
Target sequence (chain): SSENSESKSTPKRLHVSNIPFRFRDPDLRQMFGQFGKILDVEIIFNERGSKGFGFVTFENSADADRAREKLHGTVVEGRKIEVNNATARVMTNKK
| Sequence | RBNS enrichment (R) |
| --- | --- |
| AACCAGGAGUGAAUUUCAAAUGAGAUGUAAUCGACUUUAUAUCUUAGUCACGGAGUUGCCAUGGCAUGUAGUAGAAAACCACAGGAAGAAUGGUCAUAUUCACUUUGUGG | 0.294 |
| GCAAAGAGUCAGGAAGGUUACUGAAUUAGGGAACAUUUUCUGCACCUUCUGAUUUUACUUAAGCAGCUACCAUUCCAUGGACUUGCCUCCCAGAGCAGCACAAUGCCCGU | 1.67 |
| UGUGGGAAAGCAGGGUGGACGCUGAGGAGUGAAAGAACCCUGCACCCAGAGGGCCUGCCUGGUGCCAAGGUAUCCCAGCCUGGACAGGCAUGGACCUGUCUCCAGAGAGA | 0.333 |
| UGGAUUUGGGCUGCCUUGGAAGUGCCUUUAUCUGCCUCUUCUGUGACAUUUUGAGGUCUGCUUAGCUAUGGCCCCCCUUUCCCAGAUGACCCCUUUCAUGGAAACGGUGU | 0.267 |
| ACCCUUCCUGCUCAAGAUCGUCCUUCCAAUGGCUGUGUGUUUAAAGAUUGUGGGAGCUUCGCUGAACGUUAAUGUGUAGUAAAUGCACCUCCUUGUAUUCCCACUUUCGU | 0.648 |
| AUGUUACUGAGUCAGGAGAUUCAUAAGUAACUAAGAAACUGGCAGGUCAUACUGGGCAACAGUGUUCUUCUUUAGAACACUGUAGGCUCUUCUCACUGGAAGAGCAGAGG | 0.232 |
| UUUUCUUUUGUCUUUUUAUUUUCAAUUAGUGACCCAUUGUUAAAUCCAAAUCCACUUUUACUGAAAAAUACUGUACAUGUGUAAAAUGUUCAGUUGUUUUUUUGUAAAAU | 2.29 |
| CCCAAGGGGUGACCCUGCCCCUCAAAUUCAUGGUGUCCCCACCGUCUCAAUGUGAAUAGUCUCAGAGCUCUGUGCACAGAGAGGACAGUGGCCACAACACAUAAGGUGCC | 0.362 |
| UUGGUCACCUCUUUACUGUAAAUACUAUUGAAAAAAGGAGCGUAGCAUUUGCAUAGCAGGGAUUGUGCCUGUAUCUACUGUGUCCAUUUUGUUUUUUCGGAUGUUUUCUG | 1.13 |

Series 3 — method: competition protein-binding microarray; form: double-stranded DNA, one strand shown; medium: in vitro; concentration: 2 µM; together with: Pho4 competitor, 0.05 µM; direction: higher = stronger binding; shared flanks, not repeated: … GTCTTGATTCGCTTGACGCTGCTG
Target: Centromere-binding protein 1, full length, His-tagged (CBF1, Saccharomyces cerevisiae, UniProt P17106, residues 1-351)
Sequence of UniProt P17106 (whole entry, looked up): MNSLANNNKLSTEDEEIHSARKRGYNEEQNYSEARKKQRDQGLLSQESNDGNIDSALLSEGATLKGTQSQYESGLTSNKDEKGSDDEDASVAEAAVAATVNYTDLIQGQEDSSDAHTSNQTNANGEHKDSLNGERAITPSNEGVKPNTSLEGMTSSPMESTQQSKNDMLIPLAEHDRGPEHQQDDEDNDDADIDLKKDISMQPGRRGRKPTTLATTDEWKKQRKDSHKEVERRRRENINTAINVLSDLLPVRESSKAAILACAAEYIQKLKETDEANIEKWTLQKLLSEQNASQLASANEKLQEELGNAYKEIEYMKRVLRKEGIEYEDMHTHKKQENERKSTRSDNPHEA
Setting: whole 60-bp probe, lowest competitor level
| Sequence | fluorescence intensity [a.u.] |
| --- | --- |
| ATTTGGTTATGCTTGTATGCCTCTATTATTTACTTG | 68.5 |
| TAAGGTCATTAAGAACCCGTGACTCGTATCACCAAA | 1430 |
| AAATTACTAAGTTGTTGAGTGGGTGACGCCGTATGA | 74.1 |
| GAAGTCTCCAAACTCCACGTGTTGGTATTTCTCGTA | 805 |
| CATACCCAACCTTGATCCGTGGGTGAAGATATTTGT | 63.7 |
| CGGGGTTAAGTTTGCAGGGTGGGTGGCTTGCAGCAG | 70.8 |
| CAGATCGATTTGATATACGTGGTGAAGCAAAAAGCG | 70.8 |
| AAAAAACGAATGACTCACGTTATCAGGCTCATAGCT | 225 |
| GGCCAAGTTGGTTAAGGCGTGCGATTGTTAATCGCA | 84.5 |
| TTCTGCAGATAGTCTCTCGTGACTCGAATCTCGGAA | 514 |
| CTAACGAAGGTTTGACCAGTGGGTGACAAGCCAAGT | 63.9 |
| CTATTCTTGCTAATTGACGTGCGATGGTACCAGGAG | 88.1 |
| ACCTATGCTAAAATTCACGTGTAGGCATTTCAAAAT | 930 |
| GTTTGGTGCAGTGGCCACGAGGTGACTGCGACAGTC | 106 |
| CTTCTGTAAATTTGTCACGATACTTGACGCGCCCCG | 283 |
| TCTGATTGTGACAGCCACGTGGCCGGCTGAGTGTAA | 1030 |
| GTCTTGTCTCATTGATGTGTGGGTGTCCCCACTTCA | 83.8 |
| AAATTACTAAGTTGATGCGTGGGTGACGCCGTATGA | 68.3 |
| CATACCCAACCTTGAGTGGTGGGTGAAGATATTTGT | 66.8 |
| ATTGGTGATATTGTTGACGTGCTTTACAAACGGAAT | 83 |
| TTATATTGTGTGAAGCACATGCCACACTTTCCAAAA | 150 |
| CATACCCAACCTTTTCACGTGCCATAAGATATTTGT | 1550 |
| TTGAGTATTATGGTGGCATACTTTCAAGGGAGCTTG | 74.6 |
| CGTAAATATCAACTTGTCGTGCTAATAAGCACTAAC | 84.7 |
| CCGATAGTAAGGTTCGACGTGGTGAACCATCAACAA | 63.1 |

Series 4 — method: RNA Bind-n-Seq; form: RNA; medium: in vitro; concentration: not given; reference: input RNA pool; direction: higher = stronger binding
Target: RING finger protein unkempt homolog, zinc fingers 1-6, GST-SBP tag (UNK, Homo sapiens, UniProt Q9C0B0, residues 30-357)
Setting: RNA with constant flanks, human and mouse sites, ends assumed
Shared flanks, not repeated: GGGAGUUCUACAGUCCGACGAUC … CAACAGAGGAUUGAGCAUCA
Construct (chain): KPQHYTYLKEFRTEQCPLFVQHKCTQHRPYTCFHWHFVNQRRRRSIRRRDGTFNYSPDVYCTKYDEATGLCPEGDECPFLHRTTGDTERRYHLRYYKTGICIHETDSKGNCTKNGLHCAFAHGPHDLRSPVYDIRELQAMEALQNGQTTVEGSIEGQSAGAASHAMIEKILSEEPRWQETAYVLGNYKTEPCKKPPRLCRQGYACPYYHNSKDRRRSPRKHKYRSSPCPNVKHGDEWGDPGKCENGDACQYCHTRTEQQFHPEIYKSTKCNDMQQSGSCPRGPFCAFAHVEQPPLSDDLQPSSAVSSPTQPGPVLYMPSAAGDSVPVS
| Sequence | bound/input enrichment [ratio] |
| --- | --- |
| ACAAAUCACGCAACUGCAACACUAGAAGGCAAUCAGAUUUUUAACAACCGGUUUGGAGGCUUAUUUUUAGCAUCUGGUGUUAAUGUGACAAUGAAAGAUAACAAAAUAAUGAACAAUCAA | 0.241 |
| UUGGUUGUGACUUCUCUGUGUAAGUCAUCUUCUACGCCAGCUUCCCAGAACAACCUGCGGCACUAGGUCCCACCUUCGCACAACCGGUGUGAUUGACAUGAGUUCACCAGACCAGCAGGC | 0.092 |
| GUAAAGCAUCCCUUCAUCGUGGAUUUAAUUUAUGCCUUUCAGACUGGUGGAAAACUCUACCUCAUCCUUGAGUAUCUCAGUGGAGGAGAACUAUUUAUGCAGUUAGAAAGAGAGGGAAUA | 0.231 |
| CUGAGGUUAUUUGGAAUUGCUGAUAAGAUCUCCCUUGAUCUGAGUCUGGCCCGGGGCCUGGACUAUUAUACUGGAGUGAUUUAUGAAGCAGUACUGCUAGAGUCUCCAGCUCAGGCUGGA | 0.17 |
| ACAGAUAAAGACGCAACAUGAAAGACUUGUAAGUUAAGUCUCAUCUUUCUCUGUGAAAAGACAGACUGAGGGAAAAUUUAGGAAACAAAGUAUUUCCUCUGAACAGUCAUUGAUUCUUCA | 0.454 |
| AUGGAGUUAAGGGAAAGCCUGAAAGUACCUUAAUAAUGUUAUUAAUCAAGACAGAUUCCUUUUUAAAGGAAUUCUGAAUAGUUCCAUGUCAUACAAUAUUCUAGAAAUUAAAACAUCAUC | 5.25 |
| UACCUGAUGCAAGGCCCAUGUCUUCCCUACACCAGUAAACUUGUGAAAACCUUAUUGUAUAACUUUAUCAGACAAGAAAAGCCACCUCCGCCCGGAACCCAUGUCUUCCCUCAGCAGUCG | 0.252 |
| UCUCCCAUAACAAAUGAUGGGGAAGAUGAAUUUGUUCCUUCAGAUGGGUUAGAUAAAGAUGAAUAUACAUUUUCACCAGGCAAAUCAAAAGCCACUCCAGAAAAAUCUUUGCAUGACAAA | 0.262 |
| GAGAUGAGGGCAAGAGCGAUUAAAGCCCUAAUGAAAGCUGGUGAUAUAAAAAAGCCAGCCUAGGUAUUUAACUUGAUUUUGAAUUUUAGGUAUGUUUGAACAAAGCCACAUCAUUUAAUU | 1.45 |
| GCCUGGCUAGUGGAUCAUGUCUAUGCUAUCCGUGAGGCUGCCACCAGCAACCUUAAGAAAUUAGUAGAGAAGUUCGGGAAGGAGUGGGCCCAUGCCACUAUCAUCCCCAAGGUCUUAGCC | 0.178 |
| GUUUUCAGUCUCUUCCUGUCCUGAGUUUUAUUAAGAAAUCCUUUUUUCUUUUUCUUCUUUUUAGGGGAUAUAUAGUAAUAUUAGUGUAAAGAUUUUAAUUUGGGCAACUUUGACUCUUAA | 5.54 |

Repeated from above (series 3):
| Sequence | fluorescence intensity [a.u.] |
| --- | --- |
| ACCTATGCTAAAATTCACGTGTAGGCATTTCAAAAT | 930 |
| GTTTGGTGCAGTGGCCACGAGGTGACTGCGACAGTC | 106 |
| CTTCTGTAAATTTGTCACGATACTTGACGCGCCCCG | 283 |
| TCTGATTGTGACAGCCACGTGGCCGGCTGAGTGTAA | 1030 |
| GTCTTGTCTCATTGATGTGTGGGTGTCCCCACTTCA | 83.8 |
| AAATTACTAAGTTGATGCGTGGGTGACGCCGTATGA | 68.3 |
| CATACCCAACCTTGAGTGGTGGGTGAAGATATTTGT | 66.8 |
| ATTGGTGATATTGTTGACGTGCTTTACAAACGGAAT | 83 |
